# Results gathered from unrelated publications.
# Lines come from different studies, so protocols differ. Values joined by “and” are separate records of one study, mostly repeats; a detail may differ. ± marks the error that the study gave.
SMILES,assay,test system,setting,scale,endpoint,result
Cc1ccc([C@@H]2O[C@H](CO)[C@@H](O)[C@H](O)[C@H]2O)cc1Cc1ccc(-c2ccc(F)cc2)s1,,Japanese type 2 diabetes patients,"100 mg, day 4, 24 h urine collection",baseline: baseline,urinary chloride excretion change,40 mEq
O=C(CCCCCCC(=O)Nc1ccc(CC[18F])cc1)NO,,"athymic nu/nu male mice, LNCaP xenograft, kidney","intravenous, 2 h",,tissue uptake,5.7 ± 1.2 %ID/g
CCCCOc1ccc([C@H]2CC[C@H](CCC)CC2)c(F)c1F,,"rat, fetus","5000 ng/mL in perfusate, high dose, mixture of 21 LCMs",,fetal accumulation,1.43 ± 0.77 ng/g
O=C(Nc1nc2cccc(-c3ccc(CN4CCS(=O)(=O)CC4)cc3)n2n1)C1CC1,,rheumatoid arthritis patients,"oral, 100 mg twice daily, 4 weeks, TEAE regardless of relatedness",,patients with Dizziness,0%
CN(CCCNC(=O)c1cccc(C(=O)O)c1)CCCNC(=O)c1cc(NC(=O)c2cc(NC(=O)c3cc(NC(=O)c4nc(NC(=O)[C@H](N)CCNC(=O)c5cc(NC(=O)c6cc(NC(=O)c7cc(NC(=O)c8nccn8C)cn7C)cn6C)cn5C)cn4C)cn3C)cn2C)cn1C,dynamic light scattering,0.1% DMSO in PBS,25 °C,,critical aggregation concentration,4 µM
CCn1cc(C(=O)N2CCOCC2)c(=O)c2cc(NC3Cc4ccccc4C3)cnc21,,"human overall, fed, plasma","oral, 900 mg twice daily, day 7, tablet, arithmetic mean",,AUC(0-12h),49400 ng·h/mL
CN[C@@H](C)C(=O)N[C@H]1CN(S(=O)(=O)c2cccc(S(=O)(=O)N3CC[C@H]4CC[C@@H](C(=O)NC(c5ccccc5)c5ccccc5)N4C(=O)[C@@H](NC(=O)[C@H](C)NC)C3)c2)CC[C@H]2CC[C@@H](C(=O)NC(c3ccccc3)c3ccccc3)N2C1=O,"LC-MS/MS, noncompartmental","human, plasma","45 mg, cycle 1 day 1",,median Tmax,30.6 min
CN1C[C@H](COc2nccc3c(NCc4ccco4)cc(Cl)nc23)OC1=O,,"rabbit NZW female, isolated Langendorff heart","3 µM, 15 min",,LV dP/dt max,1280 mmHg/s
O=C(O)CSc1nnc(Br)n1-c1ccc(C2CC2)c2ccccc12,,"KM mouse, chronic hyperuricaemia model","dose not given, day 10",,body weight,33.1 g and 26.4 g and 25.6 g and 31 g and 30.3 g and 29.9 g
C[C@@H](Nc1cc(F)cc(F)c1)c1cc(C(=O)N(C)C)cc2c(=O)cc(N3CCOCC3)oc12,,patients with advanced solid tumours,"oral, 120 mg twice daily, monotherapy dose-finding, 2:5 schedule",,share of patients with dose interruption,66.7%
CCN1/C(=C/C(C)=O)Sc2ccc(F)cc21,,cynomolgus monkey,"oral, 100 mg/kg, 4 h post-dose",,systolic blood pressure,116 ± 4 mmHg
CNCc1ccc(-c2[nH]c3cc(F)cc4c3c2CCNC4=O)cc1,,patients,"oral, 360 mg twice daily, all grades",,abdominal pain incidence,25%
CNC(=O)c1cc(Oc2ccc(NC(=O)Nc3cc(C(C)(C)C)nn3-c3ccc4ncccc4c3)c(F)c2)ccn1,,human,"oral, dose not given, cycles 1 and 2, Medium AUC(0-4 h) subgroup",,patients with any AE of special interest,86%
CCCCOC(=O)N1CCN(C(=O)[C@H](CP(=O)(O)O)NC(=O)c2cc(N3CC[C@H](OC)C3)nc(-c3ccccc3)n2)CC1,,human,"subcutaneous, 8 mg, 1 h post-dose",baseline: baseline,change in QT interval,11.2 ± 20.4 ms
Cc1cc(C(=O)NC(C)(C)COc2cccc3c2C(N)=NS(=O)(=O)N3)cc(C)n1,,"Sprague-Dawley rat, female, plasma","oral, 100 mg/kg",,dose-normalised AUC(0-last),0.66 ng·h/mL/mg/kg
Brc1cnc(Nc2cccc(CN3CCOCC3)c2)nc1NCCc1c[nH]cn1,PAMPA,PBS,"5 h, pH 7.4",,effective permeability,1.3 ×10⁻⁶ cm/s
O=C(O)CCC(=O)O.[2H]C([2H])([2H])Oc1cc(C)c2[nH]ccc2c1CN1CC[C@@H](C2CC2)C[C@H]1c1ccc(C(=O)O)cc1,multiple ascending dose,healthy Chinese subjects,125 mg twice daily,,subjects with elevated cholesterol TEAE,0%
C=CC[C@@]1(C)NC(=O)CNC(=O)[C@H](Cc2c[nH]c3ccccc23)NC(=O)[C@H](CC(=O)O)NC(=O)[C@H](CCC(N)=O)NC(=O)[C@H](Cc2c[nH]c3ccccc23)NC(=O)[C@H](C(C)C)NC(=O)[C@@H](NC(=O)[C@@H](NC(C)=O)[C@@H](C)CC)CSSC[C@@H](C(=O)N[C@H](C(N)=O)[C@@H](C)O)NC(=O)[C@H](CCCNC(=N)N)NC(=O)[C@H](Cc2c[nH]cn2)NC1=O,"RP-HPLC, C18",28% acetonitrile isocratic,pH 7.4,,retention factor,4.106 ± 0.007
CC(=O)N[C@@H](CS)C(=O)O,,"Sprague-Dawley rat, brain",dose not given,,brain level,not detected
CCN(CC)CCNC(=O)c1c(C)[nH]c(/C=C2\C(=O)Nc3ccc(F)cc32)c1C,,FaSSIF,literature solubility over dose,,dose-adjusted solubility,0.000211 mL⁻¹
C[C@@H]1COCCN1c1cc(C2([S@](C)(=N)=O)CC2)nc(-c2cc[nH]c3nccc2-3)n1,,Japanese advanced solid tumour patients,"oral, 160 mg twice daily, CTCAE grade ≥3",,Pyelonephritis incidence,0%
CC1(C)CC[C@]2(NC(=O)C(C)(F)F)CC[C@]3(C)[C@H](C(=O)C=C4[C@@]5(C)C=C(C#N)C(=O)C(C)(C)[C@@H]5CC[C@]43C)[C@@H]2C1,,"human, plasma","oral, 150 mg once daily, day 17 predose, median",,trough concentration,35.7 ng/mL
Cc1cc(-c2nccc3c2ccn3CC(=O)Nc2ccc(-c3cnccn3)cn2)ccn1,,human,"20 mg once daily, multiple ascending dose",,subjects with Costochondritis adverse event,0%
O=C(N[C@H](Cc1c[nH]c2ccccc12)C(=O)Nc1ccncc1)c1ccc(-c2cc(C(F)(F)F)ccc2F)cc1F,,"Swiss Webster mouse, female, heart","oral, 50 mg/kg, 8 h, 20% Kolliphor vehicle",,concentration,17.3 µM
N#C[C@@]1(c2ccc3c(N)ncnn23)O[C@H](CO)[C@@H](O)[C@H]1O,plasma protein binding,dog plasma,1 µM,,bound fraction,0.119
COc1cc2c3c(n(CCCN4CCOCC4)c(=O)c2cc1OC)-c1cc2c(cc1C3=O)OCO2,,"beagle dog, female, plasma","intravenous infusion, 215 mg/m^2, 1 h infusion",,Vz,502 L/m² and 394 L/m²
COc1cc(Nc2ncc3c(n2)-c2ccc(Cl)cc2C(c2c(F)cccc2OC)=NC3)ccc1C(=O)O,"item: Cough, all grades","cancer patients, phase 1/2","oral, dose not given, with: pembrolizumab",,patients with adverse event,21%
N#Cc1ccc2c(c1)[C@H]1CCCN(C(=O)c3ccc4[nH]cnc4c3)[C@H]1C2,,human males,"80 mg, day 15",,SHBG level,34.7 nmol/L
Cl.[2H]C([2H])([2H])CC(=O)c1cnc(NC(=O)C2CC2)cc1Nc1cccc(-c2ncn(C([2H])([2H])[2H])n2)c1OC,geometric mean,human,"17.5 mg single dose, fasted, liquid",,CL/F,9.1 L/h
CCc1cc(C(=O)NC)c2nccc(N3CCc4c(cc(Cn5ccnc5)cc4-c4cn(C)nc4C(F)(F)F)C3=O)c2c1,,Sprague Dawley rat,"oral, 100 mg/kg twice daily, 7 days",,brain weight,1.85 ± 0.079 g
CC(=O)O[C@H]1C(=O)[C@@]2(C)[C@H]([C@H](OC(=O)c3ccccc3)[C@]3(O)C[C@H](OC(=O)[C@H](O)[C@@H](NC(=O)c4ccccc4)c4ccccc4)C(C)=C1C3(C)C)[C@]1(OC(C)=O)CO[C@@H]1C[C@@H]2O,item: Fatigue,patients with advanced solid tumours,"intravenous, dose not given, grade 3 and 4, possibly related to drug",,adverse event incidence,13%
C=CCN1CC(=O)N2[C@@H](Cc3ccc(O)cc3F)C(=O)N(Cc3cccc(N4CC(N5CCN(CC)CC5)C4)n3)C[C@@H]2N1C(=O)NCc1ccccc1,,advanced solid tumour patients,"oral, 45 mg twice daily, any grade, dose-escalation",,treatment-related decreased appetite,0%
CCCCCCOC(=O)NC(=N)c1ccc(NCc2nc3cc(C(=O)N(CCC(=O)OCC)c4ccccn4)ccc3n2C)cc1,item: Diarrhea,human,"oral, 75 mg, alone",,participants with adverse event,4.2%
C[C@@H](N)C1CCN(S(=O)(=O)c2cccc3cnccc23)CC1,,healthy volunteers,"250 mg, fasted",,participants with limb abscess,0%
NC(=O)N1c2ccccc2C=Cc2ccccc21,item: blood and lymphatic disorders (SOC),human male,"oral, dose not given, CTCAE on-treatment AEs",,adverse events incidence,7%
CNC(=O)c1ccc(-c2cnc3ncc(Cc4ccc5ncccc5c4)n3n2)cc1F,,"human, plasma","oral, 200 mg, geometric mean",,Cmax,1330 ng/mL
CC(C)[C@@H](CN1CC[C@@](C)(c2cccc(O)c2)[C@@H](C)C1)NC(=O)[C@H]1Cc2ccc(O)cc2CN1,,"Sprague-Dawley rat, plasma","intraperitoneal, 3 mg/kg",,AUCtotal,787 ng·h/mL
CC(C)(C(=O)N1CCOc2c(C#N)cncc2C1)C(F)F,item: Conjunctivitis,human,"oral, 20 mg twice daily, 14 days, multiple ascending dose",,subjects with adverse event,0%
Oc1ccc(/C=C/c2cc(O)cc(O)c2)cc1,,"rat, azoxymethane-injected, blood","in vivo, 100 mg/kg, at sacrifice",,T-BIL level,0.05 mg/dL and 0.04 mg/dL
Cc1c(-c2ccc(N3CCc4cccc(C(=O)Nc5nc6ccccc6s5)c4C3)nc2C(=O)O)cnn1CC12CC3(C)CC(C)(C1)CC(OCCNCC[C@H](O)CO)(C3)C2,,anaesthetized male beagle dog,"iv infusion, 0.3 mg/kg/min, 10 min",,plasma concentration,133 ng/mL and 422 ng/mL
CCN1CCN(Cc2ccc(NC(=O)c3ccc(C)c(NC(=O)c4cncc(-c5cccs5)c4)c3)cc2C(F)(F)F)CC1,LC-MS/MS,"C57BL/6 mouse, plasma","intraperitoneal, 10 mg/kg single dose, 4 h",,mean plasma concentration,90 ng/mL
NC1(C(=O)N[C@@H](CCO)c2ccc(Cl)cc2)CCN(c2nc[nH]c3nccc2-3)CC1,,metastatic CRPC patients,"400 mg b.i.d., any grade, treatment-related, with: enzalutamide 160 mg daily",,incidence of Erythema,0%
NC[C@@]1(CC(=O)O)[C@@H]2CC[C@H]3C[C@@H]2[C@@H]1C3,,"human, normal renal function, plasma","dose not given, geometric mean",,AUC(0-inf) unbound,1610 ng·h/mL
CC(C)C[C@H](NC(=O)CNC(=O)c1cc(Cl)ccc1Cl)B(O)O,item: Neutropenia,human newly diagnosed multiple myeloma,"oral, dose not given, maintenance, grade 3, onset cycle 17 or later",,treatment-emergent adverse events,0%
CCCC[C@H](NC(=O)[C@@H](NC(=O)[C@H](CCC(=O)O)NC(=O)CNC(=O)[C@@H](NC(=O)[C@H](Cc1ccccc1)NC(=O)[C@H](C)NC(=O)[C@H](CCCCN)NC(=O)CNC(=O)[C@H](Cc1ccccc1)NC(=O)[C@H](CCCCN)NC(=O)[C@H](CCCCN)NC(=O)[C@H](C)NC(=O)[C@]1(C)CCCC=CCCC[C@](C)(NC(=O)CNC(=O)[C@@H](NC(=O)CN)[C@@H](C)CC)C(=O)N[C@@H](Cc2ccccc2)C(=O)N[C@@H](CC(C)C)C(=O)N[C@@H](Cc2c[nH]cn2)C(=O)N1)C(C)C)[C@@H](C)CC)C(=O)N[C@@H](CC(N)=O)C(=O)N[C@@H](CO)C(N)=O,HPLC C18 column,,,,retention time,14.2 min
CC(C)(C)c1ccc(O)c(CN(Cc2cc(C(C)(C)C)ccc2O)C2CCC(NC(N)=O)CC2)c1 (centres unmarked),,human liver microsomes,"2000 ng/mL, 3 months, -20 °C, long-term storage",,recovery,101.9 ± 0.19%
CN1CCCC1CCNS(=O)(=O)c1ccc2c(c1)CN(CC1CCCCC1)CC2 (centres unmarked),,"mouse, plasma","oral, 10 mg/kg",,Tlast,24 h
NCc1cc2c(cc1F)C(=O)N(C1CCC(=O)NC1=O)C2 (centres unmarked),,"male cynomolgus monkey, whole blood",,,half-life,10.2 min
CCc1nc(C(N)=O)c(Nc2ccc(N3CCC(N4CCN(C)CC4)CC3)c(OC)c2)nc1NC1CCOCC1,,"Japanese patients, plasma","oral, 300 mg, cycle 0 day -2, single dose, median",,AUC(0-24),5370 ng·h/mL
N#CCNC(=O)c1ccc(-c2ccnc(Nc3ccc(N4CCOCC4)cc3)n2)cc1,,"healthy volunteers, plasma","oral, dose not given, with: ritonavir multiple-dose",baseline: with ritonavir over alone,Cmax geometric mean ratio,123%

# Excerpt of the above:
SMILES,assay,test system,setting,scale,endpoint,result
CCn1cc(C(=O)N2CCOCC2)c(=O)c2cc(NC3Cc4ccccc4C3)cnc21,,"human overall, fed, plasma","oral, 900 mg twice daily, day 7, tablet, arithmetic mean",,AUC(0-12h),49400 ng·h/mL
CN[C@@H](C)C(=O)N[C@H]1CN(S(=O)(=O)c2cccc(S(=O)(=O)N3CC[C@H]4CC[C@@H](C(=O)NC(c5ccccc5)c5ccccc5)N4C(=O)[C@@H](NC(=O)[C@H](C)NC)C3)c2)CC[C@H]2CC[C@@H](C(=O)NC(c3ccccc3)c3ccccc3)N2C1=O,"LC-MS/MS, noncompartmental","human, plasma","45 mg, cycle 1 day 1",,median Tmax,30.6 min
CN1C[C@H](COc2nccc3c(NCc4ccco4)cc(Cl)nc23)OC1=O,,"rabbit NZW female, isolated Langendorff heart","3 µM, 15 min",,LV dP/dt max,1280 mmHg/s
O=C(O)CSc1nnc(Br)n1-c1ccc(C2CC2)c2ccccc12,,"KM mouse, chronic hyperuricaemia model","dose not given, day 10",,body weight,33.1 g and 26.4 g and 25.6 g and 31 g and 30.3 g and 29.9 g
C[C@@H](Nc1cc(F)cc(F)c1)c1cc(C(=O)N(C)C)cc2c(=O)cc(N3CCOCC3)oc12,,patients with advanced solid tumours,"oral, 120 mg twice daily, monotherapy dose-finding, 2:5 schedule",,share of patients with dose interruption,66.7%
CCN1/C(=C/C(C)=O)Sc2ccc(F)cc21,,cynomolgus monkey,"oral, 100 mg/kg, 4 h post-dose",,systolic blood pressure,116 ± 4 mmHg
